Published values from different studies.
Protocols differ between the studies behind these lines.
Target: Acetylcholinesterase (ACHE, Homo sapiens, UniProt P22303)
Chain of UniProt P22303 (whole entry, looked up): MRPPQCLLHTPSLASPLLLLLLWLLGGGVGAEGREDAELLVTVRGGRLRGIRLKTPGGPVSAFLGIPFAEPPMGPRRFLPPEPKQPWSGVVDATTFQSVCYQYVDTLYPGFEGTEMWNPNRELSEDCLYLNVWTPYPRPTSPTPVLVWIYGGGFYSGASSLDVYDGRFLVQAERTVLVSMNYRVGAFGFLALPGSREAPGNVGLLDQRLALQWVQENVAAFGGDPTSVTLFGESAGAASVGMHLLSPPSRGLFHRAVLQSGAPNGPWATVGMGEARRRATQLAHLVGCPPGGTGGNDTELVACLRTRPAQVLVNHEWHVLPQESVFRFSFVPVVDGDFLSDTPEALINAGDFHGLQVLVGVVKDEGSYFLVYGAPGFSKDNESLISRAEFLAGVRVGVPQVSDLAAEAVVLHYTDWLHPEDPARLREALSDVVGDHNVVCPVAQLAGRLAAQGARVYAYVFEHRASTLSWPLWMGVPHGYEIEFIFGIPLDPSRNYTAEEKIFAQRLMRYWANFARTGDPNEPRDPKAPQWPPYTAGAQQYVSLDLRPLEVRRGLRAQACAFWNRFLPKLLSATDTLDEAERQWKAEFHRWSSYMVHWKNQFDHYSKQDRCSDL

`CN(C(=O)n1cnc(-c2ccc[n+]([O-])c2)c1)C1CCCCC1` gave an inhibition of -3.04% (10 µM).
`C=CC[N+]1([C@H]2C[C@H]3[C@@H]4CC[C@H]5C[C@H](OC(C)=O)[C@@H](N6CCCCC6)C[C@]5(C)[C@H]4CC[C@]3(C)[C@H]2OC(=O)CC)CCCCC1` has an IC50/Cmax ratio of less than 10 (relative to: IC50 over human plasma Cmax).
Under IC50, `O=C(NCCCCN1CCN(c2cccc(Cl)c2Cl)CC1)c1cc2ccccc2s1` is recorded as “inactive” (enzyme activity, inhibitor).
`O=c1ccc2ccccc2o1` has an inhibition of 19.9% (enzyme activity; 10 µM, SafetyScreen44).
`C[C@@H](C1=C(CCN(C)C)Cc2ccccc21)c1ccccn1.O=C(O)/C=C\C(=O)O` — result for IC50: “inactive” (enzyme activity, inhibitor).
The IC50 of `C[C@H]1COCCN1c1nc(NCc2cccnc2C(F)(F)F)c2cccnc2n1` is reported as greater than 100 µM (binding; CEREP panel).
`O=c1cc(CSc2ccc(N=Cc3ccc(Br)cc3)cc2)occ1O` has a Kis of 1.81 µM (inhibitor, enzyme kinetics).
The inhibition of `C=CCN1CC[C@]23c4c5ccc(O)c4O[C@H]2C(=O)CC[C@]3(O)[C@H]1C5` is reported as 4.5% (concentration not given).
`COc1cc(C(=O)NCc2ccc(OCCN(C)C)cc2)cc(OC)c1OC` has an IC50/Cmax ratio of less than 10 (relative to: IC50 over human plasma Cmax).
For `CCC1=C[C@@H]2CN3CCc4c([nH]c5ccccc45)[C@@](C(=O)OC)(C2)[C@@H]13`, IC50 read “inactive” (enzyme activity, inhibitor).

For quick reference, copied from above:
The IC50 of `C[C@H]1COCCN1c1nc(NCc2cccnc2C(F)(F)F)c2cccnc2n1` is reported as greater than 100 µM (binding; CEREP panel).
